Measurements gathered from unrelated publications.
Compare with care: the assays were run in different laboratories. ± gives the spread as reported. Ends that are not written are not given here.
Mapk14: Mapk14, pT180, pY182 (Rattus norvegicus, UniProt P70618)
Sequence of UniProt P70618 (whole entry, looked up): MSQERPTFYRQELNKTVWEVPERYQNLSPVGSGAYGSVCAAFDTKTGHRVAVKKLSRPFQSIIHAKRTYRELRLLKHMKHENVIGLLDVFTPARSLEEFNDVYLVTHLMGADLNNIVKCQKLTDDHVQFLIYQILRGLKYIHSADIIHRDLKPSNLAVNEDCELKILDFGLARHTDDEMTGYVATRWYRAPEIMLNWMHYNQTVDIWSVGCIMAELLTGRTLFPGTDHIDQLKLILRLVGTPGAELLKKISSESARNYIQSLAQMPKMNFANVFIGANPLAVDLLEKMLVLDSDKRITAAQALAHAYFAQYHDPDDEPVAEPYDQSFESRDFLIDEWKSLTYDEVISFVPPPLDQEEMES
RPLP2: RPLP2 (Homo sapiens, UniProt P05387)
Sequence of UniProt P05387 (whole entry, looked up): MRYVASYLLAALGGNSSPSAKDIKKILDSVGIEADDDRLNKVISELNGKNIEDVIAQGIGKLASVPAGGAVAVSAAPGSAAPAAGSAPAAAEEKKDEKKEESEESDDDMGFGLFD
B1: enzyme (Bacillus pumilus, UniProt A8FFI9); chain EARSIAWSVDEFFKNREGTFVIQEVKEKSPWVYNKKRAKERFAPQSTFKVANALIGLQTGAVRDEYDIKYWDGVKREIDNWNRDHTLGSGMRDSVVWYYQAMARDIGEERMNHWVKAIHYGNKDISGGIDQFWLSSTLRISPIEQVRFLKQLYEETLPFDLKNMRTVKRMMVQEEEKHATLYGKTGSGSDIGWYVGFIKHEHKTYILATNIKGTGIEAKDITYRILKKYHLMEASV
Sequence of UniProt P12259 (whole entry, unmodified, looked up): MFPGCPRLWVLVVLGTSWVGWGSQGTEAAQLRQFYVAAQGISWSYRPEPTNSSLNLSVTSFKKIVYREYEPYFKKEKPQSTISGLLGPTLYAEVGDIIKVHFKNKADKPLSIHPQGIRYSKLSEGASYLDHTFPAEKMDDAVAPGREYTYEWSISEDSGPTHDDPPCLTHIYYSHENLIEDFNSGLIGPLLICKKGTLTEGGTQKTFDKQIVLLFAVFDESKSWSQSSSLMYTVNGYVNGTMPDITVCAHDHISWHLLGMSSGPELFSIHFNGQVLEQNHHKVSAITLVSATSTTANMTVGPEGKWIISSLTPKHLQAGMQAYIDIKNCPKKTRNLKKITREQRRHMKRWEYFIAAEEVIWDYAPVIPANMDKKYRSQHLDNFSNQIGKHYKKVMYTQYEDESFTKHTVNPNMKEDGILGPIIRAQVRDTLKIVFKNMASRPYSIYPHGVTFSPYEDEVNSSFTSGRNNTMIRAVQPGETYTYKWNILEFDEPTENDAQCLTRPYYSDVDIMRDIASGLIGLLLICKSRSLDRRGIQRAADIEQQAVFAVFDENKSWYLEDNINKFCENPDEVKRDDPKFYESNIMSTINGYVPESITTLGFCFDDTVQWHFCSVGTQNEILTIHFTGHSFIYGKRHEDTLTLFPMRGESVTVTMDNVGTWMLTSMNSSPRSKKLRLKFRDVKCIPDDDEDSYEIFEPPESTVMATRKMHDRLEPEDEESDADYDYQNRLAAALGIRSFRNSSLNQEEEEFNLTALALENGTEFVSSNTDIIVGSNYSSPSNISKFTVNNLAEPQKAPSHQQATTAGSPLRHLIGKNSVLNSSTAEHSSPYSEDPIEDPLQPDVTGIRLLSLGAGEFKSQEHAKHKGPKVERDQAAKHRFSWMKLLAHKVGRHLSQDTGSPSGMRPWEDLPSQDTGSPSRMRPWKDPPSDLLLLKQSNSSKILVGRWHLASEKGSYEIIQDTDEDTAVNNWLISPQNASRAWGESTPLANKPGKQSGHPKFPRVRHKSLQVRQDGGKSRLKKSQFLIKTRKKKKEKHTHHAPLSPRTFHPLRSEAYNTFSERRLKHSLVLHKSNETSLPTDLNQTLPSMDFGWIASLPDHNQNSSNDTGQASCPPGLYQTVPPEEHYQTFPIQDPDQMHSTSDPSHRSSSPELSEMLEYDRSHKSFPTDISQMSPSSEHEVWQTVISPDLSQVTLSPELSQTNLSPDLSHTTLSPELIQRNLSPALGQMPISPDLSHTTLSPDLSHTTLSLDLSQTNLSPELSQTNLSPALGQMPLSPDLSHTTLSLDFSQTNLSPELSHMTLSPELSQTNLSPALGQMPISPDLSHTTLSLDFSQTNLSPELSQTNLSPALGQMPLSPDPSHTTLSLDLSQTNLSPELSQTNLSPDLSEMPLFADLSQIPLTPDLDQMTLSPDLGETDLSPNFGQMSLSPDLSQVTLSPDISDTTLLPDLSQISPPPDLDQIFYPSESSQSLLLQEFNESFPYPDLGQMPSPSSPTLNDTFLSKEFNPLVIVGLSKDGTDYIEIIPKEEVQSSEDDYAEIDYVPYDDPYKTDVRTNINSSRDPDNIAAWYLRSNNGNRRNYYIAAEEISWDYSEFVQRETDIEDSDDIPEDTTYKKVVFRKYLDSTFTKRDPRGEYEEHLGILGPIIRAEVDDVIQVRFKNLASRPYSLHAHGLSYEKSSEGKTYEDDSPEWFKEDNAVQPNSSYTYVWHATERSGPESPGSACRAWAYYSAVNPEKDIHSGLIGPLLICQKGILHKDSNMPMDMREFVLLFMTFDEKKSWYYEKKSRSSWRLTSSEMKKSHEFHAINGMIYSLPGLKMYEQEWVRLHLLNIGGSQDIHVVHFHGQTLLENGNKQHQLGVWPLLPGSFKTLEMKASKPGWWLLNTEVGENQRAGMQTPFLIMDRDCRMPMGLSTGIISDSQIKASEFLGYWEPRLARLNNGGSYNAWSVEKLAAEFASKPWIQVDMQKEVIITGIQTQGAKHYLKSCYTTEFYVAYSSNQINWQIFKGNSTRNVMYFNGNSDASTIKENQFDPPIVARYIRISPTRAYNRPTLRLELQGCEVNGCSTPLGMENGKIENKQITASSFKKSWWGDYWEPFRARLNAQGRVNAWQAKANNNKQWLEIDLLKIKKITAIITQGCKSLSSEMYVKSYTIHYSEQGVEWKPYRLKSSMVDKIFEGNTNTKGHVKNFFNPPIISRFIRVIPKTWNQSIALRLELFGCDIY
Sequence of UniProt P11362 (whole entry, looked up): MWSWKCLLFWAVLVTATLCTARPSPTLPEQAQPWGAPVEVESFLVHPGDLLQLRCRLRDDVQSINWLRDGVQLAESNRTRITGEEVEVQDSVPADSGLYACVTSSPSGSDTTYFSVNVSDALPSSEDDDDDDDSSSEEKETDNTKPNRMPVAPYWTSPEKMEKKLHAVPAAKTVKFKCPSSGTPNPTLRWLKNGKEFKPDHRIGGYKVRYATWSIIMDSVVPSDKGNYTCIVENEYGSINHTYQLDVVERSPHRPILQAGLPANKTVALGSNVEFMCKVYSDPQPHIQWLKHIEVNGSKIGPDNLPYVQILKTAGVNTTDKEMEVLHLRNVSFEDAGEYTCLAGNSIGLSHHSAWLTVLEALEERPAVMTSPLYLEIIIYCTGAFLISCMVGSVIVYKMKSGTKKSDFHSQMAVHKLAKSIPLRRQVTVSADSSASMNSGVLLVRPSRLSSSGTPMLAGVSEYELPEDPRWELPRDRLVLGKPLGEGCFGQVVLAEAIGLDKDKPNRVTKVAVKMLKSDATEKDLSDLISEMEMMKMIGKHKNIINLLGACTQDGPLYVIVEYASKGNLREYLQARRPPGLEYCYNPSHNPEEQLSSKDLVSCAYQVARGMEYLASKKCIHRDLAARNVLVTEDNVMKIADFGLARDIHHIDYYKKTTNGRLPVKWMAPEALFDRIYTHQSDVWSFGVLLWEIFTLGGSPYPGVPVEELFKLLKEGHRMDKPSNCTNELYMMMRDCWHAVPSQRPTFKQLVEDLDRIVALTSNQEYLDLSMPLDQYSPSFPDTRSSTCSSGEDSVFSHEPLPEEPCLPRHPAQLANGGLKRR
Sequence of UniProt O60656 (whole entry, looked up): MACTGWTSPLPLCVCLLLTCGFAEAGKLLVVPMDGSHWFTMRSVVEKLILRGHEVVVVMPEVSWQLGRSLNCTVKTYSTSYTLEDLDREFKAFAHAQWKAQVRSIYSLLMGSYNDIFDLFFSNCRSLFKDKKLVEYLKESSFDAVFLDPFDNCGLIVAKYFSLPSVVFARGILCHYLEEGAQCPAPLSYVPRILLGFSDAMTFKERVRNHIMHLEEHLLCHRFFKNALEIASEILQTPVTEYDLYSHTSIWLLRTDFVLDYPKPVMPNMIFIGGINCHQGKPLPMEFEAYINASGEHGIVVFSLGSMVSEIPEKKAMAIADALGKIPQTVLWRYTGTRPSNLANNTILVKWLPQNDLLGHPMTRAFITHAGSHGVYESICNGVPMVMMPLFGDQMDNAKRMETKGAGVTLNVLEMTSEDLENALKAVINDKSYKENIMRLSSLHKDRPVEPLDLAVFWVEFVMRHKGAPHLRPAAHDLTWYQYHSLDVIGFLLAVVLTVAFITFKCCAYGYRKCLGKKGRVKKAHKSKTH
Sequence of UniProt Q9H6P5 (whole entry, looked up): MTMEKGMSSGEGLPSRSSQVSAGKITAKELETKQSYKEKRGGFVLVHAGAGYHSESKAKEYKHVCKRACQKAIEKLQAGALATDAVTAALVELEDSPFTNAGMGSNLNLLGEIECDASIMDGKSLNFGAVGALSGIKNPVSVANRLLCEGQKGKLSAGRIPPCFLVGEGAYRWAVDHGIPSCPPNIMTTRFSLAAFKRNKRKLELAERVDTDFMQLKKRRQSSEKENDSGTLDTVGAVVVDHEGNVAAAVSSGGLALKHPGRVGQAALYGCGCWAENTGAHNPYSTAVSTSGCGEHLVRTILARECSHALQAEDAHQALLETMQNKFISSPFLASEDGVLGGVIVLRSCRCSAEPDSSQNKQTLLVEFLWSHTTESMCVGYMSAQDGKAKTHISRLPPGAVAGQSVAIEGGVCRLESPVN

For `SIYNFEKL`, the TNF-alpha+ cells was 65.3% (OT-I CD8+ T cells; peptide; concentration not given, primed 5 d, OVA257 100 ng/mL restimulation, with: no TGF-beta1).
The kcat/Km of `B1 (enzyme)` is reported as 1.1e+06 ± 200000 M⁻¹ s⁻¹ (CC1(C)S[C@@H]2[C@H](NC(=O)[C@H](C(=O)O)c3ccsc3)C(=O)N2[C@H]1C(=O)O; steady-state kinetics; pH 7).
`YAKQVRKKEHKLKITP (AFAP1L2 D-site peptide (Homo sapiens))` has an IC50 of 40000 nM (Mapk14; kinase activity, inhibitor, competitive kinase inhibition assay; peptide; with: ATP 1 mM).
The IC50 of `FGF1 fragment Q40P/S47I/H93G/C117S, vcMMAE on N-terminal Cys (Homo sapiens)` is reported as 40 nM (FGFR1 (Homo sapiens, UniProt P11362); cytotoxicity, alamarBlue viability; U2OS FGFR1; 96 hours, with: heparin).
The Vmax/Km of `UGT1A9 (Homo sapiens, UniProt O60656)` is reported as 100 µL/min/mg (O=c1c(O)c(-c2ccccc2O)oc2cc(O)cc(O)c12; steady-state kinetics; pH 7.4, 37 °C).
With `HSPA1A (Homo sapiens, UniProt P0DMV8)` the IC50 was 640 nM (MAPT (Homo sapiens, UniProt P10636-7); tau aggregation, light scattering, inhibitor; with: ARA).
`Ac-ISQLD-vs (KMT2A residues 2714-2718, N-acetyl, C-terminal vinyl sulfone; reading uncertain; also: printed as Ac-Ile-Ser-Gln-Leu-Asp-vs; N-acetyl, C-terminal vinyl sulfone; vs = not defined here)` has an IC50 of 29400 nM (TASP1 (Homo sapiens, UniProt Q9H6P5); Taspase1 cleavage inhibition, inhibitor, FRET reporter assay; peptide; added simultaneously with substrate).
For `KCNTATCATQRLANFLVHSSNNFGPILPPTNVGSNTY (Pramlintide; not fully specified (C-terminus, bridges); cysteine pairing not given here; sequence looked up)`, “injection site adverse events” read 44.6% (peptide, obese or overweight humans; dose not given).
For `Trichosanthin fragment K173A/R174A/K177A (Trichosanthes kirilowii)`, the IC50 was 0.5 nM (RPLP2; in vitro translation inhibition; rabbit reticulocyte lysate).
`SIIVFEKL`: “double cytokine producers” 8.19% (OT-I CD8+ T cells; refers to: IL-2, IFN-gamma, TNF-alpha; peptide; primed 5 d, OVA257 100 ng/mL restimulation, with: 20 ng/mL TGF-beta1 from day 2).
For `YAGEQRRRRLELQLQE (MYH14 D-site peptide (Homo sapiens))`, the IC50 was 35000 nM (Mapk14; kinase activity, inhibitor, competitive kinase inhibition assay; peptide; with: ATP 1 mM).
`D-helical peptide inhibitor, Boc N-terminus, all D-residues, Aib, methyl ester` has an IC50 of 34.8 nM (PSEN1/NCSTN/APH1A/PSENEN γ-secretase complex; γ-secretase Aβ40 production, inhibitor, sandwich ELISA).
`Trichosanthin fragment K173A (Trichosanthes kirilowii)` has an IC50 of 0.2 nM (RPLP2; in vitro translation inhibition; rabbit reticulocyte lysate).
For `YARRRKRRSLAINLTN (TTLL13P D-site peptide (Homo sapiens))`, the IC50 was 760 nM (Mapk14; kinase activity, inhibitor, competitive kinase inhibition assay; peptide; with: ATP 1 mM).
With `Trichosanthin fragment K177A (Trichosanthes kirilowii)` the IC50 was 0.09 nM (RPLP2; in vitro translation inhibition; rabbit reticulocyte lysate).
The IC50 of `TFPI (Homo sapiens, UniProt P10646-1)` is reported as 29.7 nM (F5 B-domain deleted 811-1490 R709Q/R1545Q (UniProt P12259); prothrombinase inhibition, inhibitor; with: dalteparin 1 u/mL).

For quick reference, copied from above:
The IC50 of `FGF1 fragment Q40P/S47I/H93G/C117S, vcMMAE on N-terminal Cys (Homo sapiens)` is reported as 40 nM (FGFR1 (Homo sapiens, UniProt P11362); cytotoxicity, alamarBlue viability; U2OS FGFR1; 96 hours, with: heparin).
The Vmax/Km of `UGT1A9 (Homo sapiens, UniProt O60656)` is reported as 100 µL/min/mg (O=c1c(O)c(-c2ccccc2O)oc2cc(O)cc(O)c12; steady-state kinetics; pH 7.4, 37 °C).
